Measurements from different studies.
Each line is one published result; not all experiments were run side by side.
Cell line: MDA-MB-231
Effect on: cell growth or viability

C=CCOc1ccc2c(C)c(CC)c(=O)oc2c1C  viability (MTT; 500 µg/mL): 5.28%
CC(C)(C)[C@H](N)C(=O)Nc1ccccc1/N=c1\cc(-c2ccc3c(c2)OCO3)oc2ccccc12  inhibition (CCK-8; 1 µM): 6.49%
CCOC(=O)C(C(C)=O)=C1Sc2nc3ccc(S(=O)(=O)N4CCCC4)cc3nc2S1  viability (MTT; 6.25 µM, 24 h): 32.6%
NCCC(=O)Nc1cccc(/N=c2\cc(-c3ccc4c(c3)OCO4)oc3ccccc23)c1  inhibition (CCK-8; 1 µM): -6.06%
Cc1c(Cc2ccccc2)c(=O)oc2c(C)c(OCC(=O)NN=Cc3ccc([N+](=O)[O-])cc3)ccc12  viability (MTT; 250 µg/mL): 13.9%
NCCC(=O)Nc1ccccc1/N=c1\cc(-c2ccc3c(c2)OCO3)oc2ccccc12  inhibition (CCK-8; 1 µM): 26.5%
CCc1c(C)c2ccc(OCC(=O)NN=Cc3ccc([N+](=O)[O-])cc3)cc2oc1=O  viability (MTT; 500 µg/mL): 13.7%
COc1cccc2c1C(=O)c1c(O)c3c(c(O)c1C2=O)C[C@@](O)(C(=O)CO)C[C@@H]3O[C@H]1C[C@H](N)[C@H](O)[C@H](C)O1  IC50 (MTT; 75 h): 2120 nM
CS(=O)(=O)NCCC(=O)Nc1ccccc1/N=c1\cc(-c2ccc3nc(N)oc3c2)oc2ccccc12  inhibition (CCK-8; 1 µM): -6.88%
N#CC(C(=O)Nc1cccc(C(F)(F)F)c1)=C1Sc2nc3ccc(S(=O)(=O)N4CCCC4)cc3nc2S1  viability (MTT; 12.5 µM, 24 h): 37.8%
COc1cccc(NC(=O)Nc2ccc(Oc3nc4ccccc4n4cnnc34)cc2)c1  viability (MTT; 6.25 µM, 24 h): 71.3%
CCOc1ccc2c(C)c(CC)c(=O)oc2c1C  viability (MTT; 125 µg/mL): 76.5%
NCCC(=O)Nc1ccccc1/N=c1\cc(-c2ccc3nc(N)oc3c2)oc2ccc(O)cc12  inhibition (CCK-8; 1 µM): 30.8%
O=C(Nc1ccccc1)Nc1ccc(Oc2nc3ccccc3n3cnnc23)cc1  viability (MTT; 12.5 µM, 24 h): 83.6%
O=C1CCCCC1=C1Sc2nc3ccc(S(=O)(=O)N4CCCC4)cc3nc2S1  viability (MTT; 12.5 µM, 24 h): 34%
CCc1c(C)c2ccc(OCC=Cc3ccccc3)c(C)c2oc1=O  viability (MTT; 250 µg/mL): 26%
O=C(Nc1ccc(Cl)cc1)Nc1ccc(Oc2nc3ccccc3n3cnnc23)cc1  viability (MTT; 1.56 µM, 24 h): 100%
CC(C)(C)[C@H](N)C(=O)Nc1ccccc1/N=c1\cc(-c2ccc3c(c2)OCCO3)oc2cc(F)ccc12  inhibition (CCK-8; 1 µM): -0.47%
CCCOc1ccc2c(C)c(CC)c(=O)oc2c1C  viability (MTT; 125 µg/mL): 86.3%
O=C(Nc1ccc(Oc2nc3ccccc3n3cnnc23)cc1)Nc1cccc(Cl)c1  viability (MTT; 1.56 µM, 24 h): 100%

Repeated from above:
CCc1c(C)c2ccc(OCC(=O)NN=Cc3ccc([N+](=O)[O-])cc3)cc2oc1=O  viability (MTT; 500 µg/mL): 13.7%
COc1cccc2c1C(=O)c1c(O)c3c(c(O)c1C2=O)C[C@@](O)(C(=O)CO)C[C@@H]3O[C@H]1C[C@H](N)[C@H](O)[C@H](C)O1  IC50 (MTT; 75 h): 2120 nM
CS(=O)(=O)NCCC(=O)Nc1ccccc1/N=c1\cc(-c2ccc3nc(N)oc3c2)oc2ccccc12  inhibition (CCK-8; 1 µM): -6.88%
